Results collected from several papers.
Lines come from different studies, so protocols differ.
US11 1-149: US11 1-149 (Herpes simplex virus 1, UniProt Q5MDG9)
B1: hisG (Mycobacterium tuberculosis, UniProt P9WMN1); chain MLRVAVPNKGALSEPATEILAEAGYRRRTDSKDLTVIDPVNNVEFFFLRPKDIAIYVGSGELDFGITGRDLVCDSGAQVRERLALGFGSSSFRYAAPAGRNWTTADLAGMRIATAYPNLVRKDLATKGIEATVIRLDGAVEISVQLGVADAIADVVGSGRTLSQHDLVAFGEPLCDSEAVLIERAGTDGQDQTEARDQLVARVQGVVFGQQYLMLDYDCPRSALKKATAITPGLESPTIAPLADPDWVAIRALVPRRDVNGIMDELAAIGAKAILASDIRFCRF

Molecule | tested on | assay | system | setting | endpoint | result
AGCAGCACAGAGGTCAGATGGCCATCCCCCCGTCCGATGAGTGGTGCTCCTATGCGTTCCGGATACGCTGCATGCGTGAA (ssDNA) | G residues 67-298 (Human respiratory syncytial virus, UniProt P20895) | capillary electrophoresis | single-stranded DNA |  | binding | no binding
AGAGAG (ssRNA) | HIV-1 reverse transcriptase p66/p51 (HIV-1) | filter binding | RNA | 5 µM | binding | no binding
GGGAAUGGAUCCACAUCUACGAAUUCAUCAGGGCUAAAGAGUGCAGAGUUACUUAGUUCACUGCAGACUUGACGAAGCUU (structured RNA) | US11 1-149 | EMSA | folded RNA |  | binding | no binding
CGGGCCCGTCCCACCGCCCTGGAGCACCATCCGGGGCCGTGGGCCGGGCACCGGG (structured DNA) | UL84 1-586 (Human cytomegalovirus, UniProt P16727) | pull-down immunoblot | folded DNA |  | binding | no binding
GGGAAUGGAUCCACAUCUACGAAUUCGCAAUCCUGCAUUGUAUAGCAUCGUAUGACUUCACUGCAGACUUGACGAAGCUU (structured RNA) | US11 1-149 | EMSA | folded RNA |  | binding | binds
B1 (hisG) | Nc1ncnc2c1ncn2[C@@H]1O[C@H](COP(=O)(O)OP(=O)(O)OP(=O)(O)O)[C@@H](O)[C@H]1O | steady-state kinetics |  | pH 8.5, 25 °C, apparent, with: PRPP | Km | 263 µM
